Measurements of several laboratories.
A part holds a random share of what one study measured. Positions count from the first letter of the parent shown.

Series 1 — technique: RNA Bind-n-Seq; form: RNA; medium: in vitro; concentration: 365 nM; relative to: no-protein control; reading: higher = stronger binding
Target: RNA binding protein fox-1 homolog 2, RRM domain, GST-SBP tag (RBFOX2, Homo sapiens, UniProt O43251-10, residues 100-194)
Notes: natural RNA segment, single round, ends assumed
All sequences stand within: GGGAGUUCUACAGUCCGACGAUC … UGGAAUUCUCGGGUGCCAA
Target sequence (chain): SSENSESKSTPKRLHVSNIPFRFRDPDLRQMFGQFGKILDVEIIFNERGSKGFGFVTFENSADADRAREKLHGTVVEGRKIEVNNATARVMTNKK
Oligonucleotide	RBNS enrichment (R)
UGGCUUCCUAGAGUUUGGACAUAUUCCAGGCUAAAUGCUUUUACUCAAGACUACAGAAAGGUUUGAAGUAGUGUGUGCAUGGCAUGCACGUAUGUAAGUAAUCUGGGGAA	0.653
UGUACAGAAUAUUUAUUUUUUCUCAAAAUGCAUUUUAACUACUACAUUGGCUGUGCCCAAAUGAGUCCUCUUUGAAUAGAAAGUGAACCCAGGGCAAUGACAGCCAUUCU	1.55
AGUACCUUUAACUCAAUUUAAUAUAACAAGAAAUCGUAAAAUACUUAUAACCUAUCUUAGAGAAAUGAGUGCUGGUUUUGAGAGUUGUUUUUUAACUGAAAGAUUAUUUC	0.405
GGGUCCAGCAGGGGUGGGGGGUUCCUGCUCUGCCCCUGCCCGUCCCCACCCAGUCUUGCCCUCCCAUCCUCUCAUCUAUUCCCCCGCUGGAGACGGAAGAUCUUUUAUUU	0.584
CCACGGAGUCCGGUGUGGGGGGUUUGGUUCUAACUGUCCUGGUGAUGCCUCUCUGAGUGGAAAUCUUAUUUUUGUAGAUCUGUACUUUGCUCUCGAGGCUUGGAGAGAUG	0.639
UGGUCCCAUGGCUGAAGCUGGAGCAGCGGAUUGCUCUGGAGCAGCCAAGGCCGCCAGCGUGUGGAGCAGAGCUCUCCCCUCCUGCUGGGCGUGUGUGACACUGAUGAGUU	0.418
GAAACUGAUUCCAAGGACAUCCACAUAGCUGAGCCAAGAUGCUCCAGGCCAGUGGCAGGUGGACUGGAAGAGGCCUCUCCACUGAGCCUGUGUUCUGUGCUUCAGGCUCU	0.342
GCAGUUCAUUUCCAUUAGGCAGACGUAUAAACUAAGGAAUGUUAGUCUGCAGUAUUCAUUUUAAAAAUAUUGACAUGCUUUUCCCCUCCCCUCCAUGAAGUCAGUGCCAG	0.674
AGCAGGUCUGACCAGCCCUACACCCUGCCACAGAUCACAGCUUGCCGGGCAAAUGACCCUGCGAAGCCACGGUGCAGCGCCCCCUGCUGGCGAGCAGCGGGCAGACCUCC	0.531
CUCUGCUCACACCUGGGAAGGGGCUCUCUAAAUCCCGGCCAGAAACUCUGACUUGUGCCAACAAUAGGAUGACCCAAGGGAGAGGAAACCUAUCCUCCUCACCAGAAGAG	0.183
UAGCCCAAUGAAGGUGAUGAAGCUUUUGGAUUUGGAGGGUAAAAGCUCCUUCACACCCCUUCCAAAAGUCAGUCACAGACCACUGCAACAUGCCUUCCCUGCUGGAUCAU	0.828
AGUCCUGUGAGGCCCCUGAAGCUCUGUGAGGCCCCUGAAGCUCUGUGAACCCCCUGCAGCCCUGUGAGGCCCCCCGAAGCCCUGUGAGGCCCCCCGAAGCCCUGUGAACC	0.453

Series 2 — technique: universal PBM; form: double-stranded DNA, one strand shown; medium: in vitro; concentration: 600 nM; reading: higher = stronger binding
Target: Sal-like protein 4, full length isoform A (SALL4, Homo sapiens, UniProt Q9UJQ4, residues 1-1053)
Sequence of UniProt Q9UJQ4 (whole entry, looked up): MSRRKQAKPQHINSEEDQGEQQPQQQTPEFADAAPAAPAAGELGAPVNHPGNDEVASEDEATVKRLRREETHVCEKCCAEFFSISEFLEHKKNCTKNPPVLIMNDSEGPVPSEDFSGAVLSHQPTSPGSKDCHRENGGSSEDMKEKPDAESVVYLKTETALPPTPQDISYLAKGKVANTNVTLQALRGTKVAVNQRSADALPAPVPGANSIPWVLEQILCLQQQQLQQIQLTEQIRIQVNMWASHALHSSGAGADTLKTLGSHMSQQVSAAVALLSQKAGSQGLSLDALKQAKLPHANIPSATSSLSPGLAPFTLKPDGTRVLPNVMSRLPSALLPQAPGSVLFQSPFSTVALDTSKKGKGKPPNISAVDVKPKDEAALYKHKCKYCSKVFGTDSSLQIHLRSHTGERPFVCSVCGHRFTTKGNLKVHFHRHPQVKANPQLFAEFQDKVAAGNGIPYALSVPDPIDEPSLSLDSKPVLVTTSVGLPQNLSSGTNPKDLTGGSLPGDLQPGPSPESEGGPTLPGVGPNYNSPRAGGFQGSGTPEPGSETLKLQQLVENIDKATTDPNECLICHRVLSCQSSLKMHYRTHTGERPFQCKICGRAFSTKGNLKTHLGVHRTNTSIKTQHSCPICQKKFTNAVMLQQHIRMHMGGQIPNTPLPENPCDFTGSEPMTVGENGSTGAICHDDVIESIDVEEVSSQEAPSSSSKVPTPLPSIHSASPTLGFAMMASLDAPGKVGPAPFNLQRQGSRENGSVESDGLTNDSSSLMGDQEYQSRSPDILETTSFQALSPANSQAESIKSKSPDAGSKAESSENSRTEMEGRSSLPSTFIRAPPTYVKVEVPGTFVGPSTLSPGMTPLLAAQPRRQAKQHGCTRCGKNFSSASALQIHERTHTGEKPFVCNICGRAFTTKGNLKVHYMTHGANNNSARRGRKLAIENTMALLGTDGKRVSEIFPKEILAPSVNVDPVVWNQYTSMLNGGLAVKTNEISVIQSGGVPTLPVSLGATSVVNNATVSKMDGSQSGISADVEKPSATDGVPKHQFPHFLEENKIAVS
Notes: 8-mer, flanks averaged, mean of replicates
Oligonucleotide	E-score
CGATTACA	0.0537
ATCCAGAT	-0.0547
AAATTTAT	0.405
CGTGAACC	-0.207
TCGGAGAA	-0.0798
ACATAACG	0.266
TAACAGAA	0.211
GTCTTAGA	-0.0436
ACCGACAT	0.0705
CGGCGGTC	-0.384
AATGATGA	0.269
AGTCCAAC	-0.256
GGTACTTA	0.0389
AAAGGCAG	0.0647
AAGGTATC	-0.0694
CGGGCAGC	-0.429
ATATGGGC	0.0954
AGCCGCAT	-0.175
ACCATAGA	0.0492
GGACGCAA	-0.225
ATTATTAG	0.407
ATTGGGTG	0.0504
ATATCCAC	0.192
GCGGTTGA	-0.137
GCAAATTA	0.212

Series 3 — target: CCNB3, cyclin fold, Cln2 fusion (human); technique: yeast growth competition, sequencing; medium: yeast; notes: weak parent motif; relative to: not given; reading: higher = stronger binding
Parent: INSM1 docking peptide (human); PKAIRKLHFEDEV; partner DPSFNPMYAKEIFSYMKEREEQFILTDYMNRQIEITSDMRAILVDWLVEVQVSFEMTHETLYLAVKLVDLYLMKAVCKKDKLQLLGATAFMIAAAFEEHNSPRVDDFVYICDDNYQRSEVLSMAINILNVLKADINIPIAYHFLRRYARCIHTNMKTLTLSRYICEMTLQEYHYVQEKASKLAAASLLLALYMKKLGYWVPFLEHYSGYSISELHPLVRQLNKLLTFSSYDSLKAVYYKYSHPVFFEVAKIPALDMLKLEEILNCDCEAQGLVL
Variant	normalised enrichment score
PKALRKLHFEDEV [I4L]	0.6
PKAIRALHFEDEV [K6A]	0.149
PKAIRKLHFELEV [D11L]	0.293
PKAIRKLHFVDEV [E10V]	-0.0051
PKANRKLHFEDEV [I4N]	0.452
PKAIQKLHFEDEV [R5Q]	0.0418
PKAIRKLHFEEEV [D11E]	0.284
PKAIRKLHFRDEV [E10R]	0.105
PKAERKLHFEDEV [I4E]	0.021
PSAIRKLHFEDEV [K2S]	0.604
PKAQRKLHFEDEV [I4Q]	0.0963
PKAIRKLHTEDEV [F9T]	-0.0599
PKAIRKLHFEDIV [E12I]	0.714
PKAKRKLHFEDEV [I4K]	1.32
PKAIRKLHFEDTV [E12T]	0.367
PKAIRCLHFEDEV [K6C]	-0.18
PKAIRKLNFEDEV [H8N]	0.636
PKGIRKLHFEDEV [A3G]	0.469
PKAFRKLHFEDEV [I4F]	1.04
PKAIRKLHFHDEV [E10H]	0.0672
PKAIRHLHFEDEV [K6H]	0.315
PKAIRKLHFEDSV [E12S]	0.383
PKAIRKLHFDDEV [E10D]	0.226
PKAIFKLHFEDEV [R5F]	0.0317
PKAIRKLHGEDEV [F9G]	-0.0354

Series 4 — technique: protein-binding microarray; form: double-stranded DNA, one strand shown; medium: in vitro; concentration: 250 nM; notes: 60-bp whole probe; together with: salmon DNA 0.4 mg/ml; relative to: random background probes; reading: higher = stronger binding; all sequences stand within: GCCTAGCAC … GTCTTGATTCGCTTGACGCTGCTG
Target: Interferon regulatory factor 7, full length, phosphomimetic (IRF7, Homo sapiens, UniProt Q92985, residues 1-503, S101K/S471D/S472D/S475D/S476D/S477D/S483D/S484D/S487D)
Construct (chain): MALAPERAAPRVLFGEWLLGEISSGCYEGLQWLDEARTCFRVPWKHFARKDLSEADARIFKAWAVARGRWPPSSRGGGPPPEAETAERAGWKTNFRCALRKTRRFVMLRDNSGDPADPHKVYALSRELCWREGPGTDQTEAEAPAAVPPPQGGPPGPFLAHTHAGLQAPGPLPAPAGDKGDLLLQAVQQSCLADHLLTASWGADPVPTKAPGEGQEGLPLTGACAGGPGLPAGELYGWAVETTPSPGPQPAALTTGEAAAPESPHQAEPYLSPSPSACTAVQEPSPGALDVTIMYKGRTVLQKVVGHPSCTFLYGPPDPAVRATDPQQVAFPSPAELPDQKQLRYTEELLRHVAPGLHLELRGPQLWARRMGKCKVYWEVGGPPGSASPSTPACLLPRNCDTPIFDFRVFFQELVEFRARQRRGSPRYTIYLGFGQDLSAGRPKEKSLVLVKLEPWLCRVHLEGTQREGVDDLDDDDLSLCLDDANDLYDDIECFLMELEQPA
Oligonucleotide	log fluorescence
TTAGGTATAGACACTGGGTTAGTGCTA	-0.33 z-score
TCAACTCTGAACCTTGGACTGTGCTAG	0.045 z-score
TCACTAGTGTTTTTCTCACTGTGCTAG	0.0347 z-score
GACGGACTGGACCTTCGGGACGTGCTA	-0.899 z-score
TCATTTTTATTTTCTGAACTGTGCTAG	1.32 z-score
ATCATTTTTGCTTACGATGCGTGCTAG	0.574 z-score
TCATATTAGAGTCTCAAACTGTGCTAG	0.635 z-score
GACGAACTGACTTTCGAGACGTGCTAG	0.0923 z-score
TTAGGTCTCCTACTGCTTTAGTGCTAG	-0.0115 z-score
TTAGATTTCATTCTCGATTAGTGCTAG	1.94 z-score
TAGACCTAGAAAGAAACCACGTGCTAG	1.08 z-score
TTAGGTTTCACTTTCCAAAAGTGCTAG	10.7 z-score
TTACATATCAGTCTCGATTAGTGCTAG	1.77 z-score
TTAGAACTGAGTATCGAATAGTGCTAG	0.152 z-score
GACGGTTTCGGTTTCGCGACGTGCTAG	14.1 z-score
TTAGGTATCGGGTCTCGGTTAGTGCTA	2.36 z-score
TTAGGACTGCTTATCATTTAGTGCTAG	0.13 z-score
TTAGAACTGGGTCTCGGTTAGTGCTAG	0.937 z-score
TCAGATTTCTTCCCTGTGACTGTGCTA	0.144 z-score
GACGATATCGGGTTTCGAGCCGTGCTA	1.31 z-score
TTAGAACTGGGTTTTCGATTAGTGCTA	1.89 z-score
TTAGATCACAGTATCGATTAGTGCTAG	1.26 z-score
TCAAGTGTTTTTCTCCTACTGTGCTAG	0.322 z-score
TTCTAATTTACTTTGGTTGGGTGCTAG	0.258 z-score
TTTCTTTTCATTACTGCATTGTGCTAG	4.52 z-score

Series 5 — technique: protein binding microarray; form: double-stranded DNA, one strand shown; medium: in vitro; concentration: not given; relative to: not given; reading: higher = stronger binding
Target: Histone acetyltransferase KAT6A, winged helix 2, GST fusion (KAT6A, Homo sapiens, UniProt Q92794, residues 85-181)
Notes: 8-mer, flanks averaged, mean of 2 arrays, mostly near background
Construct (chain): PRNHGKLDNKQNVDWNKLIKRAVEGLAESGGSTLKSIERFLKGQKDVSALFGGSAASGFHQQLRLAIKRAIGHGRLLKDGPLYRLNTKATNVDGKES
Oligonucleotide	E-score
CGCATCAC	-0.0716
ACATTAAC	-0.206
AGAAAGCG	0.034
ACGTCGAC	-0.0506
ACCATATC	-0.128
CCGAAAGG	0.0926
CGGGAAGC	0.276
TGAGCTCA	0.153
GCACACAC	0.0597
CGGGTGTA	-0.128
ACGGACTA	-0.239
AACATGAC	-0.136
GCAACGTA	-0.209
GGAAGCGA	0.108
CGTAGCAG	-0.00835
GCCAACCA	-0.00257
AACGAGTT	-0.035
ATTTCGCG	0.208
CCCTCGCG	0.00936
CCCTTGGA	0.119
GGCCTAAA	-0.102
AGCCGCGA	0.0711
GTCGCCGA	0.164
TCAGGGCA	0.117
CGTGCTGC	0.111

Some of these lines once more (series 4):
Oligonucleotide	log fluorescence
TTAGGTATCGGGTCTCGGTTAGTGCTA	2.36 z-score
TTAGAACTGGGTCTCGGTTAGTGCTAG	0.937 z-score
TCAACTCTGAACCTTGGACTGTGCTAG	0.045 z-score
TTAGAACTGGGTTTTCGATTAGTGCTA	1.89 z-score
TTCTAATTTACTTTGGTTGGGTGCTAG	0.258 z-score
TCATTTTTATTTTCTGAACTGTGCTAG	1.32 z-score
TTAGATTTCATTCTCGATTAGTGCTAG	1.94 z-score
TCATATTAGAGTCTCAAACTGTGCTAG	0.635 z-score
GACGGTTTCGGTTTCGCGACGTGCTAG	14.1 z-score
GACGAACTGACTTTCGAGACGTGCTAG	0.0923 z-score
TTAGGTTTCACTTTCCAAAAGTGCTAG	10.7 z-score
GACGGACTGGACCTTCGGGACGTGCTA	-0.899 z-score
